# Measurements gathered from unrelated publications.
# Protocols differ between the studies behind these lines. ± gives the spread as reported.
# Cell line: K562
Compound,test,setting,endpoint,value
CCCCC[C@H](CC(=O)NO)C(=O)N[C@H](C(=O)N1CCC[C@H]1CO)C(C)C,aminopeptidase activity,with: Ala-AMC 50,IC50,1.46 µM
Nc1nc(-c2ccccc2)cc(-c2ccccc2O)n1,"cell growth or viability, MTT",48 h,IC50,57.4 µM
COc1cc(C(=O)c2sc3ccccc3c2N)cc(OC)c1OC,cell growth or viability,,IC50,0.53 µM
COc1ccc(-c2cc(-c3ccc(O)cc3)nc(N)n2)cc1,"cell growth or viability, MTT",48 h,IC50,43.2 µM
COc1ccc2c(NC(C)=O)c(C(=O)c3cc(OC)c(OC)c(OC)c3)oc2c1,flow cytometry,IC50,sub-G1 cells,12 ± 3%
O=C1c2cccc(O)c2C(=O)c2c(O)cc(CO)cc21,"cell growth or viability, ATP luminescence",24 h,IC50,309 µM
COc1cc(C(=O)c2sc3cc(C)ccc3c2N)cc(OC)c1OC,cell growth or viability,,IC50,0.006 µM
COc1cccc(-c2cc(-c3ccc(O)cc3)nc(N)n2)c1,"cell growth or viability, MTT",48 h,IC50,48.4 µM
COc1ccc2c(NC(=O)CBr)c(C(=O)c3cc(OC)c(OC)c(OC)c3)oc2c1,flow cytometry,IC50,sub-G1 cells,15 ± 2%
COc1ccc(-c2cc(-c3cccc(OC)c3)nc(N)n2)cc1,"cell growth or viability, MTT",48 h,IC50,8.77 to 57.7 µM
O=c1c(O)c(-c2ccc(O)c(O)c2)oc2cc(O)cc(O)c12,"cell growth or viability, ATP luminescence",24 h,IC50,33 µM
CNC(=O)c1cc(Oc2ccc(NC(=O)Nc3cc(C(C)(C)C)nn3-c3ccc4ncccc4c3)c(F)c2)ccn1,annexin V staining,"72 h, continuous exposure",threshold concentration for apoptosis,50 nM
CC(=O)O[C@H]1C(=O)[C@@]2(C)[C@H]([C@H](OC(=O)c3ccccc3)[C@]3(O)C[C@H](OC(=O)[C@H](O)[C@@H](NC(=O)c4ccccc4)c4ccccc4)C(C)=C1C3(C)C)[C@]1(OC(C)=O)CO[C@@H]1C[C@@H]2O,"phosphorylation increase, phosphoproteomics, item: MAP7, MAP7D3, ARHGEF2",30 min,EC50,~1 µM
CC(C)C[C@H](NC(=O)[C@@H](O)[C@H](N)Cc1ccccc1)C(=O)O,cell growth or viability,580 µM,inhibition,19.6%
O=C(O)c1cc(O)c2c(c1)C(=O)c1cccc(O)c1C2=O,"cell growth or viability, ATP luminescence",24 h,IC50,380 µM

# For quick reference, copied from above:
Compound,test,setting,endpoint,value
COc1ccc2c(NC(=O)CBr)c(C(=O)c3cc(OC)c(OC)c(OC)c3)oc2c1,flow cytometry,IC50,sub-G1 cells,15 ± 2%
